Measured values from different studies.
Lines come from different studies, so protocols differ. “And” joins repeats or separate records; there may be more than shown. Numbers after ± are the reported error.

| Substance | organism | assay | test system | conditions | how to read | endpoint | result |
| --- | --- | --- | --- | --- | --- | --- | --- |
| Cc1cc(/C=C/C#N)cc(C)c1Nc1nc(Nc2ccc(C#N)cc2)ncc1N | HIV-1 | viral replication, single-round infection | RT mutant L100I/K103N |  |  | EC50 | 1.7 ± 0.4 nM |
| Cc1cc(C)cc(S(=O)(=O)c2c(C(N)=O)[nH]c3ccc(Cl)cc23)c1 | HIV-1 | viral replication | MT-4, Y181C mutant |  |  | EC50 | 39 ± 2.8 nM |
| CC[C@H](C)[C@H](NC(=O)[C@H](CCCCN)NC(=O)[C@H](Cc1ccc(O)cc1)NC(=O)[C@H](CCC(N)=O)NC(=O)[C@H](Cc1c[nH]cn1)NC(=O)[C@@H](NC(=O)[C@H](Cc1ccccc1)NC(=O)[C@H](Cc1c[nH]cn1)NC(=O)[C@@H](NC(=O)[C@@H](NC(=O)CNC(=O)[C@H](CCCNC(=N)N)NC(=O)[C@H](Cc1c[nH]c2ccccc12)NC(=O)[C@H](CC(C)C)NC(=O)[C@H](CO)NC(=O)[C@H](CCC(=O)O)NC(=O)[C@H](CC(C)C)NC(=O)[C@H](CCC(=O)O)NC(=O)[C@H](CC(N)=O)NC(=O)[C@H](CC(C)C)NC(=O)[C@H](CC(=O)O)NC(=O)[C@H](CO)NC(=O)[C@H](CCC(=O)O)NC(=O)[C@@H](NC(=O)[C@H](CC(C)C)NC(=O)[C@H](CCC(N)=O)NC(=O)[C@H](CCC(=O)O)NC(=O)[C@H](CCC(=O)O)NC(=O)[C@H](CC(C)C)NC(=O)[C@@H]1CCCN1C(=O)[C@@H](N)Cc1ccccc1)[C@@H](C)O)[C@@H](C)O)[C@@H](C)O)C(C)C)C(=O)N[C@@H](CCSC)C(=O)N1CCC[C@H]1C(=O)N[C@@H](Cc1ccccc1)C(=O)N[C@@H](CCCNC(=N)N)C(=O)N[C@@H](CCCCN)C(=O)N[C@@H](CC(C)C)C(=O)N[C@H](C(=O)N[C@@H](Cc1ccccc1)C(=O)N[C@@H](CCCCN)C(=O)N[C@@H](CCCNC(=N)N)C(=O)N[C@@H](CCCNC(=N)N)C(=O)N[C@@H](CCCCN)C(=O)N[C@@H](CC(N)=O)C(N)=O)C(C)C | Aspergillus flavus | ATP luminescence | ATCC 9170 | 48 h, 37 °C |  | MIC | > 50 µM |
| C[N+]1=C2C(c3ccc(Cl)cc3)=[N+]([O-])c3ccccc3N2CCC1 | Bacteroides thetaiotaomicron | microbial growth | ATCC29148 |  |  | MIC | 4 µg/mL |
| O=C(NCc1ccc(F)cc1F)c1cn2c(c(O)c1=O)C(=O)N(CCCCCO)CC2 | human immunodeficiency virus 1 | single-round vector infection | integrase G140S/Q148H |  |  | EC50 | 1200 ± 120 nM |
| [O-][N+]1=C(c2ccccc2)C2=NCCCN2c2ncccc21 | Bacteroides thetaiotaomicron | microbial growth | ATCC29148 |  |  | MIC | ≤ 0.06 µg/mL |
| CC(C)CC(C)N1CCn2cc(C(=O)NCc3ccc(F)cc3F)c(=O)c(O)c2C1=O (stereo not shown) | human immunodeficiency virus 1 | single-round vector infection | integrase G140S/Q148H |  |  | EC50 | 168 ± 17.1 nM |
| Cc1cc(C#N)cc(C)c1Oc1nc(NC2CCN(Cc3ccncc3)CC2)nc2ccccc12 | HIV-1 GH9 | viral replication | TZM-bl, K101P/K103N/V108I |  |  | EC50 | 142 ± 35.1 nM |
| Cc1cc(C)cc(S(=O)(=O)c2c(C(=O)NC3CC4(C3)CN(Cc3n[nH]c(=O)[nH]3)C4)[nH]c3ccc(Cl)cc23)c1 | HIV-1 | viral replication | MT-4, Y188L mutant |  |  | EC50 | 560 ± 140 nM |
| COCCn1ccn2cc(C(=O)NCc3ccc(F)cc3F)c(=O)c(O)c2c1=O | human immunodeficiency virus 1 | single-round vector infection | integrase G140S/Q148H |  |  | EC50 | 793 ± 27.1 nM |
| Cc1cc(/C=C/C#N)cc(C)c1-n1cnc2cnc(Nc3ccc(C#N)cc3)nc21 | HIV-1 | viral replication, single-round infection | RT mutant Y181I |  |  | EC50 | 23.1 ± 4.5 nM |
| CNCc1ccc2c(c1)N(C(=O)OCc1c(F)c(F)c(F)c(F)c1F)[C@H](CNC(=N)N)[C@H]2NC(=O)C(=O)Nc1ccc(Cl)c(F)c1 | HIV-1 AD8 Env E64G/S375N | viral infection |  |  |  | IC50 | < 75000 nM and 40000 nM |
| Cc1nc([C@@H](NC(=O)c2ccc(-c3ccc(Cl)cc3)[nH]2)[C@H]2CCCCN2)sc1CO | HIV-1 | viral replication | MT-2, IIIB |  |  | IC50 | 1700 ± 20 nM |
| COc1ccc(C2=[N+]([O-])c3ccccc3N3CCCN=C23)cc1 | Bacteroides thetaiotaomicron | microbial growth | ATCC29148 |  |  | MIC | 1 µg/mL |
| CC[C@H](C)[C@H](NC(=O)[C@H](CCC(N)=O)NC(=O)[C@H](CCC(=O)O)NC(C)=O)C(=O)N[C@@H](Cc1c[nH]c2ccccc12)C(=O)N[C@@H](CC(N)=O)C(=O)N[C@@H](CC(N)=O)C(=O)N[C@@H](CCSC)C(=O)N[C@H](C(=O)N[C@@H](Cc1c[nH]c2ccccc12)C(=O)N[C@@H](CCSC)C(=O)N[C@@H](CCC(=O)O)C(=O)N[C@@H](Cc1c[nH]c2ccccc12)C(=O)N[C@@H](CC(=O)O)C(=O)N[C@@H](CCCNC(=N)N)C(=O)N[C@@H](CCC(=O)O)C(=O)N[C@H](C(=O)N[C@@H](CC(N)=O)C(=O)N[C@@H](CC(N)=O)C(=O)N[C@@H](Cc1ccc(O)cc1)C(=O)N[C@H](C(=O)N[C@@H](CO)C(=O)N[C@@H](CC(C)C)C(=O)N[C@H](C(=O)N[C@@H](Cc1c[nH]cn1)C(=O)N[C@@H](CO)C(=O)N[C@@H](CC(C)C)C(=O)N[C@H](C(=O)N[C@@H](CCC(=O)O)C(=O)N[C@@H](CCC(=O)O)C(=O)N[C@@H](CO)C(=O)N[C@@H](CCC(N)=O)C(N)=O)[C@@H](C)CC)[C@@H](C)CC)[C@@H](C)O)[C@@H](C)CC)[C@@H](C)O | HIV-1 NL4-3 | viral infection, SEAP reporter | CEMx174 SEAP reporter cells | 3 days |  | IC50 | 26.5 nM |
| COCCCN1CCn2cc(C(=O)NCc3ccc(F)cc3F)c(=O)c(O)c2C1=O | human immunodeficiency virus 1 | single-round vector infection | integrase N155H |  |  | EC50 | 6.9 ± 1 nM |
| COc1ccc(C2=[N+]([O-])c3ccccc3N3CCN=C23)cc1 | Bacteroides thetaiotaomicron | microbial growth | ATCC29148 |  |  | MIC | ≤ 0.06 µg/mL |
| O=C(NCc1ccc(F)cc1F)c1cn2c(c(O)c1=O)C(=O)N(CCCCO)CC2 | human immunodeficiency virus 1 | single-round vector infection | integrase N155H |  |  | EC50 | 311 ± 29.8 nM |
| C[N+]1=C2C(c3ccccc3)=[N+]([O-])c3ccccc3N2CCC1 | Bacteroides thetaiotaomicron | microbial growth | ATCC29148 |  |  | MIC | 2 µg/mL |
| COCCN1CCn2cc(C(=O)NCc3ccc(F)cc3F)c(=O)c(O)c2C1=O | human immunodeficiency virus 1 | single-round vector infection | integrase G118R |  |  | EC50 | 15.8 ± 2.2 nM |
| ivermectin | human adenovirus C5 | reporter gene | A549 | 1 µM, 72 h, with: digitoxin | reference: DMSO control | viral replication | 71.9 ± 10.2% |
| O=C(NCc1ccc(F)cc1F)c1cn2ccn(CCCCCCO)c(=O)c2c(O)c1=O | human immunodeficiency virus 1 | single-round vector infection | integrase R263K |  |  | EC50 | 6 ± 0.6 nM |
| CCCCCCCCCCCCCCC[C@@H](O)[C@H](CO)NC(=O)N[C@@H](CC(C)C)C(=O)N[C@@H](CC(C)C)C(=O)N[C@@H](CCC(N)=O)C(=O)N[C@@H](CC(C)C)C(=O)N[C@H](C(=O)N[C@H](C(=O)N[C@@H](Cc1c[nH]c2ccccc12)C(=O)NCC(=O)N[C@H](C(=O)N[C@@H](CCCCN)C(=O)N[C@@H](CCC(N)=O)C(=O)N[C@@H](CC(C)C)C(=O)N[C@@H](CCC(N)=O)C(=O)N[C@@H](C)C(=O)N[C@@H](CCCNC(=N)N)C(=O)N[C@H](C(=O)N[C@@H](CC(C)C)C(=O)N[C@@H](CCCCN)C(N)=O)[C@@H](C)CC)[C@@H](C)CC)C(C)C)[C@@H](C)O | HIV-1 HXB2 | viral infectivity, luciferase reporter | TZM-bl |  |  | IC50 | 116 nM |
| COCCCCCCN1CCn2cc(C(=O)NCc3ccc(F)cc3F)c(=O)c(O)c2C1=O | human immunodeficiency virus 1 | single-round vector infection | integrase G118R |  |  | EC50 | 15.6 ± 4.1 nM |
| CNCc1ccc2c(c1)N(C(=O)OCc1ccccc1)[C@H](CNC(=N)N)[C@H]2NC(=O)C(=O)Nc1ccc(Cl)c(F)c1 | HIV-1 AD8 Env E64G/I424T | viral infection |  |  |  | IC50 | 40000 nM and < 75000 nM |

Some of these lines once more:
| Substance | organism | assay | test system | conditions | how to read | endpoint | result |
| --- | --- | --- | --- | --- | --- | --- | --- |
| Cc1cc(C)cc(S(=O)(=O)c2c(C(=O)NC3CC4(C3)CN(Cc3n[nH]c(=O)[nH]3)C4)[nH]c3ccc(Cl)cc23)c1 | HIV-1 | viral replication | MT-4, Y188L mutant |  |  | EC50 | 560 ± 140 nM |
| COCCn1ccn2cc(C(=O)NCc3ccc(F)cc3F)c(=O)c(O)c2c1=O | human immunodeficiency virus 1 | single-round vector infection | integrase G140S/Q148H |  |  | EC50 | 793 ± 27.1 nM |
| Cc1cc(/C=C/C#N)cc(C)c1-n1cnc2cnc(Nc3ccc(C#N)cc3)nc21 | HIV-1 | viral replication, single-round infection | RT mutant Y181I |  |  | EC50 | 23.1 ± 4.5 nM |
| CNCc1ccc2c(c1)N(C(=O)OCc1c(F)c(F)c(F)c(F)c1F)[C@H](CNC(=N)N)[C@H]2NC(=O)C(=O)Nc1ccc(Cl)c(F)c1 | HIV-1 AD8 Env E64G/S375N | viral infection |  |  |  | IC50 | < 75000 nM and 40000 nM |
